{"data": "Measurements collected from several papers", "note": "Each numbered part is a random draw from the data of one study; scales do not carry over between parts. Values joined by “and” are separate records of one study, mostly repeats; a detail may differ. pIC50: −log10 of the molar value.", "chain of UniProt P51957 (whole entry, looked up)": "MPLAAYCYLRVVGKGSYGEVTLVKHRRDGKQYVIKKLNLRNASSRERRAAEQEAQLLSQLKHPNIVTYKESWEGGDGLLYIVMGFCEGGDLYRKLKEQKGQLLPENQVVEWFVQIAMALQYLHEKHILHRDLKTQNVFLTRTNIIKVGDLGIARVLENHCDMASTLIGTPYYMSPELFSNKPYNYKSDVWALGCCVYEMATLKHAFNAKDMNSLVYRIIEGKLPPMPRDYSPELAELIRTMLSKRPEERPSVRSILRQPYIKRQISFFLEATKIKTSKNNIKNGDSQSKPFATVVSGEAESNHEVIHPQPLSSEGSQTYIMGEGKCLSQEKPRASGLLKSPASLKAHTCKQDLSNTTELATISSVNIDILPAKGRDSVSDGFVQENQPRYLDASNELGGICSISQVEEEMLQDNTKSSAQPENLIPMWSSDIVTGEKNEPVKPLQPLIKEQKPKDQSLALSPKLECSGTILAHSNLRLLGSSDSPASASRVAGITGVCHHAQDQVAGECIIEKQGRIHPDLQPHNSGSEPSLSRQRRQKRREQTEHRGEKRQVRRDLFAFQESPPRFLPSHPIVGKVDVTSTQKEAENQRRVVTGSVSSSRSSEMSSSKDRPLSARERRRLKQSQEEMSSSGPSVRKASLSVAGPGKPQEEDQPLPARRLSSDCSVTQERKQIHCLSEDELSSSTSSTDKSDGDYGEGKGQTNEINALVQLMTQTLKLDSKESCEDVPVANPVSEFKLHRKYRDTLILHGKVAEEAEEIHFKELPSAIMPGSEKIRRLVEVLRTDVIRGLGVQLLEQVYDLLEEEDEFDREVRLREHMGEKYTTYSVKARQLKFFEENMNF", "chain of UniProt O14757 (whole entry, looked up)": "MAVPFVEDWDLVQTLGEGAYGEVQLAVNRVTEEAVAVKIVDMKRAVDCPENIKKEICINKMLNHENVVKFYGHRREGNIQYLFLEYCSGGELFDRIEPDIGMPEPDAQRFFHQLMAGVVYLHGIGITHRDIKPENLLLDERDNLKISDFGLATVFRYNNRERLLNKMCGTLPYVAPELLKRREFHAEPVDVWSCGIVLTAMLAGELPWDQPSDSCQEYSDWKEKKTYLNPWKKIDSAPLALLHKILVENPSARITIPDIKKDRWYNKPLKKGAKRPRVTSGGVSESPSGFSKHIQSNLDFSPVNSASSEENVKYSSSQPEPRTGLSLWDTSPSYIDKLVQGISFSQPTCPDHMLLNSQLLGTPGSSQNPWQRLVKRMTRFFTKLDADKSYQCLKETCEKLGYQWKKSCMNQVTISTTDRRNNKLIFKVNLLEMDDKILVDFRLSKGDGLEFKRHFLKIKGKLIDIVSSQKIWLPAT", "chain of UniProt Q5S007 (whole entry, looked up)": "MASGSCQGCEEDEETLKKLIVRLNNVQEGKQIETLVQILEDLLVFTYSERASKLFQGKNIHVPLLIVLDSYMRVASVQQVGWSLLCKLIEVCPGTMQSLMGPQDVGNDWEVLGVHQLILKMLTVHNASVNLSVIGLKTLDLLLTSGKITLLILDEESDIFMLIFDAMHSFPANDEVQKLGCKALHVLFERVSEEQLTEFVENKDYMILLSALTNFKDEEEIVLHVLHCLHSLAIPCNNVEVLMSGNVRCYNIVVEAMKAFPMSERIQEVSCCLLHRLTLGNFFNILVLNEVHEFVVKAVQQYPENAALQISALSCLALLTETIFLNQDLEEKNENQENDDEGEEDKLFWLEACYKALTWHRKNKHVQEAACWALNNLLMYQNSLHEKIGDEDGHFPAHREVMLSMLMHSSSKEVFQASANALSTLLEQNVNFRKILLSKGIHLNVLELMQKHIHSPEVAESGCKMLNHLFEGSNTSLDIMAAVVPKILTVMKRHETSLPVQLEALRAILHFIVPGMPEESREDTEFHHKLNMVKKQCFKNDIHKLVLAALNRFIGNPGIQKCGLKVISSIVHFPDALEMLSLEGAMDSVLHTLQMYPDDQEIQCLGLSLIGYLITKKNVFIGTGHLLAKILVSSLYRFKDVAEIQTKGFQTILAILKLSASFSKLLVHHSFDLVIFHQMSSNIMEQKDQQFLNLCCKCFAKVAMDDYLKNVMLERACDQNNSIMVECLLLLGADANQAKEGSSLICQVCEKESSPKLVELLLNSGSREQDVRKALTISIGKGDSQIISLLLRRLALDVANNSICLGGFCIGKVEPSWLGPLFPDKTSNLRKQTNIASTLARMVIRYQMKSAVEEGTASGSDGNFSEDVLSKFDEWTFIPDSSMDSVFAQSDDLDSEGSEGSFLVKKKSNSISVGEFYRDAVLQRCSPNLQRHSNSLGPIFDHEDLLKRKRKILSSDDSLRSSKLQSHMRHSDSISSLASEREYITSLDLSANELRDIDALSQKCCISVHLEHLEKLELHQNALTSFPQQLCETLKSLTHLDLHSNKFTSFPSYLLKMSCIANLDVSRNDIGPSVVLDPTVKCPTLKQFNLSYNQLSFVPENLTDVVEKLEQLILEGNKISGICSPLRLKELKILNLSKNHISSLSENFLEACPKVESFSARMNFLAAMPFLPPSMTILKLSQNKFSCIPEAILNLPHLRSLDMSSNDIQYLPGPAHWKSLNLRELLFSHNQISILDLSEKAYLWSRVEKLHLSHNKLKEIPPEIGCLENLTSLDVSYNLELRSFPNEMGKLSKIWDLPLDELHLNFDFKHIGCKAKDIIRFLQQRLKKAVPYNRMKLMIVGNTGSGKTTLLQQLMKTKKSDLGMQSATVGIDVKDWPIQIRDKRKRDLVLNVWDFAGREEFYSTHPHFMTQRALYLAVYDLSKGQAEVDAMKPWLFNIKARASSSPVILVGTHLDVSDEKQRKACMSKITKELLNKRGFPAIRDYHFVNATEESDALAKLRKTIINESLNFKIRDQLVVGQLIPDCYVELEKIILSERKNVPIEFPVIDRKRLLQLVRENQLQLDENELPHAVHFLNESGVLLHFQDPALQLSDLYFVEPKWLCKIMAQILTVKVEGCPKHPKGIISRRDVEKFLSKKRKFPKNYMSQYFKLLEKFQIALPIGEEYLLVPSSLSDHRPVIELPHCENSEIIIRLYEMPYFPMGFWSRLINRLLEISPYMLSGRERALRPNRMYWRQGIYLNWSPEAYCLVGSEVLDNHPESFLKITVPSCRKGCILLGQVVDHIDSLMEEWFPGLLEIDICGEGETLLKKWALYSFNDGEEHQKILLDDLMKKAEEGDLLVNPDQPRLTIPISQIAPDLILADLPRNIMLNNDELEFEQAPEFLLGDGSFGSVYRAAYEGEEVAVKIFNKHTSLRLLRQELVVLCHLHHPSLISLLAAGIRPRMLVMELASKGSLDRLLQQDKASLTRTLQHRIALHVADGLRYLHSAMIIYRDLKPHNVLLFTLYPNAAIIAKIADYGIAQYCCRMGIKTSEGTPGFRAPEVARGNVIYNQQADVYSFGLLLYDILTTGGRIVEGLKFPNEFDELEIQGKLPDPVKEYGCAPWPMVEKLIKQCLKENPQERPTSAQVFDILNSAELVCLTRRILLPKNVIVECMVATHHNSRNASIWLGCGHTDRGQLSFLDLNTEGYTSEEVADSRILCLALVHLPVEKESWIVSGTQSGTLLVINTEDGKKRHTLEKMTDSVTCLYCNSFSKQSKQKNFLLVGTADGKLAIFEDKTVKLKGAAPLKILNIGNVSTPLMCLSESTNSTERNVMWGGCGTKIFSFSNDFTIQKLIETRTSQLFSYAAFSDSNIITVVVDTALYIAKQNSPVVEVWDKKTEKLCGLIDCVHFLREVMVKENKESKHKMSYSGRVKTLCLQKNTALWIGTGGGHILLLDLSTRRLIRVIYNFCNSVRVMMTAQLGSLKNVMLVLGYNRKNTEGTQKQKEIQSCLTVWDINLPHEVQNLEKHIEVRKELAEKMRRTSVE"}
{"data": "Series 1", "SMILES": "CC(C)(C)n1nc(Cc2cccc3ccccc23)c2c(N)ncnc21", "read-out": "enzyme activity", "action": "inhibitor", "concentration": "0.5 µM", "reference": "control"}
{"target": "WNK2 (Homo sapiens, UniProt Q9Y3S1)", "remaining activity": "115%"}
{"target": "CSNK2A1 (Homo sapiens, UniProt P68400)", "remaining activity": "99.1%"}
{"target": "MAP2K6 (Homo sapiens, UniProt P52564)", "remaining activity": "91.1%"}
{"target": "AKT3 (Homo sapiens, UniProt Q9Y243)", "remaining activity": "96.9%"}
{"target": "LYN (Homo sapiens, UniProt P07948)", "remaining activity": "52.6%"}
{"target": "EPHA5 (Homo sapiens, UniProt P54756)", "remaining activity": "43.5%"}
{"target": "MAPK12 (Homo sapiens, UniProt P53778)", "remaining activity": "86.6%"}
{"target": "LRRK2 (Homo sapiens, UniProt Q5S007)", "remaining activity": "90.9%"}
{"target": "MAP4K2 (Homo sapiens, UniProt Q12851)", "remaining activity": "91.3%"}
{"target": "NEK4 (Homo sapiens, UniProt P51957)", "remaining activity": "102%"}
{"target": "MAPK13 (Homo sapiens, UniProt O15264)", "remaining activity": "105%"}
{"target": "PRKCD (Homo sapiens, UniProt Q05655)", "remaining activity": "98.7%"}
{"target": "MKNK2 (Homo sapiens, UniProt Q9HBH9)", "remaining activity": "93.4%"}
{"target": "KIT (Homo sapiens, UniProt P10721)", "remaining activity": "84.6%"}
{"target": "BTK (Homo sapiens, UniProt Q06187)", "remaining activity": "41.8%"}
{"target": "PLK2 (Homo sapiens, UniProt Q9NYY3)", "remaining activity": "97.6%"}
{"target": "CHEK1 (Homo sapiens, UniProt O14757)", "remaining activity": "110%"}
{"target": "MAP3K10 (Homo sapiens, UniProt Q02779)", "remaining activity": "90.4%"}
{"target": "IRAK4 (Homo sapiens, UniProt Q9NWZ3)", "remaining activity": "90.4%"}
{"target": "Cyclin-dependent kinase 9, with cyclin T1 (CDK9, Homo sapiens, UniProt P50750)", "remaining activity": "102%"}
{"target": "STK38 (Homo sapiens, UniProt Q15208)", "remaining activity": "96.4%"}
{"target": "PRKG1 (Homo sapiens, UniProt Q13976)", "remaining activity": "95.1%"}
{"data": "Series 2", "target": "Synaptic vesicular amine transporter (SLC18A2, Homo sapiens, UniProt Q05940)", "read-out": "transporter inhibition", "action": "inhibitor", "chain of UniProt Q05940 (whole entry, looked up)": "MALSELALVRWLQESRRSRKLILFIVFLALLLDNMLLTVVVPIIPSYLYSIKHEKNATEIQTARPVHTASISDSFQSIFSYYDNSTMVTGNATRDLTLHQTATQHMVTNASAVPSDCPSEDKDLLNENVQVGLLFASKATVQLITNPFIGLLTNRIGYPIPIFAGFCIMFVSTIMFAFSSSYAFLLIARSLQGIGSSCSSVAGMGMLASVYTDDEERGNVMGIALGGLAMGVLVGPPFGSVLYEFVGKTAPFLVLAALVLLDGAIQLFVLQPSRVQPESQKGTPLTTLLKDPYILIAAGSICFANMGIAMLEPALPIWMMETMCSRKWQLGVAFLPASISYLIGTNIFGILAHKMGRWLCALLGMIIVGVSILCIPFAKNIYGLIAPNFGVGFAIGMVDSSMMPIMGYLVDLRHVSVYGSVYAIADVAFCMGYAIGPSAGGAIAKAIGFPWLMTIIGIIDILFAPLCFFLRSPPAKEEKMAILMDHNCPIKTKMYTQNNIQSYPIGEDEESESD"}
{"SMILES": "CNCC[C@H](Oc1cccc2ccccc12)c1cccs1", "pIC50": 5.52}
{"SMILES": "OC(CCN1CCCCC1)(c1ccccc1)C1CCCCC1 (stereo not drawn)", "pIC50": 5.26}
{"SMILES": "CC(C)NCC(O)COc1ccc(CCOCC2CC2)cc1 (stereo not drawn)", "pIC50": 5.01}
{"SMILES": "Cc1ccccc1N1CCN(CCc2nnc3n2CCCC3)CC1", "pIC50": 6.25}
{"SMILES": "C#CCN[C@@H]1CCc2ccccc21", "pIC50": "< 5.00"}
{"SMILES": "CN(C)C(=O)N[C@H]1CC[C@H](CCN2CCN(c3cccc(Cl)c3Cl)CC2)CC1", "pIC50": 6.07}
{"SMILES": "Oc1ccc(CCCCNC[C@H](O)c2ccc(O)c(O)c2)cc1", "pIC50": 7.70}
{"SMILES": "NC(=O)c1cccc2cn(-c3ccc([C@@H]4CCCNC4)cc3)nc12", "pIC50": 5.21}
{"SMILES": "CNCCC=C1c2ccccc2CCc2ccccc21", "pIC50": 5.17}
{"SMILES": "O=C1CC2(CCCC2)CC(=O)N1CCCCN1CCN(c2ncccn2)CC1", "pIC50": 5.66}
{"SMILES": "O=C1CN(/N=C/c2ccc([N+](=O)[O-])o2)C(=O)N1", "pIC50": "< 5.00"}
{"SMILES": "CCCCN(CCCC)CCC(O)c1cc2c(Cl)cc(Cl)cc2c2cc(C(F)(F)F)ccc12 (stereo not drawn)", "pIC50": 6.03}
{"SMILES": "CNCCCC12CCC(c3ccccc31)c1ccccc12", "pIC50": 5.94}
{"SMILES": "OCCOCCN1CCN(C2=Nc3ccccc3Sc3ccccc32)CC1", "pIC50": "< 5.00"}
{"data": "Series 3", "target": "Histamine H3 receptor (HRH3, Homo sapiens, UniProt Q9Y5N1)", "read-out": "ligand displacement", "concentration": "10 µM", "chain of UniProt Q9Y5N1 (whole entry, looked up)": "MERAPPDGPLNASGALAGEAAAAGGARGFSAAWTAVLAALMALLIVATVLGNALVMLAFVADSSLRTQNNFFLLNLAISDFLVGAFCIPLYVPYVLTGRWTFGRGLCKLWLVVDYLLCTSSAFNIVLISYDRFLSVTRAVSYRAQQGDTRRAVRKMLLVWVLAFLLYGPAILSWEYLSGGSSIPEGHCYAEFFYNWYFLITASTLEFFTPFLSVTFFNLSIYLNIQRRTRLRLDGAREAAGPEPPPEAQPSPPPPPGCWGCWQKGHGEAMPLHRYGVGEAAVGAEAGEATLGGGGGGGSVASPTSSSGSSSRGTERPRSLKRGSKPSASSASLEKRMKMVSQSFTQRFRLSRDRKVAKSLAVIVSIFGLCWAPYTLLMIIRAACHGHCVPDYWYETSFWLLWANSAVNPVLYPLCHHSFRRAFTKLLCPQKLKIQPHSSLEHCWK"}
{"SMILES": "CCC(F)(F)c1cc(N2CCC(S(C)(=O)=O)CC2)nc2sc(C(N)=O)c(N)c12", "inhibition [%]": 0.2}
{"SMILES": "COc1cc(C(=O)O)ncc1C#Cc1ccccc1NS(=O)(=O)c1cccc2c(N(C)C)ccnc12", "inhibition [%]": 6.76}
{"SMILES": "N#CC1(c2ccccn2)CCN(Cc2cc(C(=O)N3CCCC3)c(=O)n3ccccc23)CC1", "inhibition [%]": 11.2}
{"SMILES": "Cc1ccccc1Oc1cc(-n2c(=O)cc(C(F)(F)F)[nH]c2=O)c2ccccc2c1Cl", "inhibition [%]": -21.5}
{"SMILES": "O=C(NS(=O)(=O)c1ccc(NCC2CCOCC2)c([N+](=O)[O-])c1)c1ccc(N2CCN(Cc3ccc(C(F)(F)F)cc3-c3ccc(Cl)cc3)CC2)cc1Oc1cnc2[nH]ccc2c1", "inhibition [%]": -1.15}
{"SMILES": "C[C@@H](c1cccc(C#N)c1)n1cc(Cl)cc(C(N)=O)c1=N", "inhibition [%]": -16.5}
{"SMILES": "NC(=O)c1ccc2nc(-c3ccc(C4(N)CCC4)cc3)c(-c3ccccc3)n2n1", "inhibition [%]": 14.6}
{"SMILES": "Nc1nc(NCc2ccccc2)nc(-c2cccc(CO)c2)n1", "inhibition [%]": -9.05}
{"SMILES": "C[C@H](c1ccc(F)cc1)N(Cc1cccc(C(=O)O)c1)C(=O)c1cnc2ccccc2c1", "inhibition [%]": 16.6}
{"SMILES": "COc1cccc(NC(=O)c2nc3scc(CN(C)Cc4ccccc4)c3c(=O)[nH]2)c1", "inhibition [%]": 6.01}
{"SMILES": "CNC(=O)Nc1ccc2c(c1)CC[C@]21OC(=O)N(CC(=O)N(Cc2ccc(F)cc2)[C@@H](C)C(F)(F)F)C1=O", "inhibition [%]": 0.39}
{"SMILES": "Cc1ccc(-c2cnc([C@@]3(O)CC[C@H](C(=O)O)C(C)(C)C3)s2)cc1Nc1cccc(C(F)(F)F)n1", "inhibition [%]": 46.3}
{"SMILES": "CC1CCN(c2ccnc(NCc3cn(C)cn3)n2)CC1", "inhibition [%]": 35.1}
{"SMILES": "Cc1c(NC(=O)c2cc(C(N)=O)nc3cc(F)ccc23)c(C(F)(F)F)nn1Cc1ccc(C#N)cc1", "inhibition [%]": -15.3}
{"SMILES": "c1ccc(N2CCN(Cc3nc4ccccc4[nH]3)CC2)nc1", "inhibition [%]": 6.03}
{"SMILES": "COc1cc(-c2cn(C3CCc4c(F)cccc4N(CC(F)(F)F)C3=O)nn2)ccc1-n1cnc(C)c1 (stereo not drawn)", "inhibition [%]": 23.3}
{"data": "Series 4", "SMILES": "CC(=O)N[C@@H](Cc1c[nH]c2ccccc12)C(=O)N[C@@H](CCC(=O)C=[N+]=[N-])C(=O)OC(C)C", "route": "subcutaneous", "dose": "0.3 mg/kg/day DON equivalent", "time": "5 days", "reading": "higher = more metabolite"}
{"test": "UPLC-MS/MS metabolomics, item: dihydroorotate", "system": "EL4, C57BL/6 CES1-/- mice, EL4 tumour, tumour", "metabolite peak area": "667000 a.u. and 1.26e+06 a.u. and 463000 a.u. and 167000 a.u. and 395000 a.u. and 614000 a.u."}
{"test": "UPLC-MS/MS, item: threonine", "system": "C57BL/6 CES1-/- mice, EL4 tumour", "metabolite peak area": "1.64e+09 a.u. and 1.79e+09 a.u. and 1.47e+09 a.u. and 1.37e+09 a.u. and 1.17e+09 a.u. and 1.71e+09 a.u."}
{"test": "UPLC-MS/MS metabolomics, item: cytidine", "system": "EL4, C57BL/6 CES1-/- mice, EL4 tumour, tumour", "metabolite peak area": "4.14e+08 a.u. and 4.28e+08 a.u. and 4.84e+08 a.u. and 2.32e+08 a.u. and 3.62e+08 a.u. and 1.85e+08 a.u."}
{"test": "UPLC-MS/MS, item: urate", "system": "C57BL/6 CES1-/- mice, EL4 tumour", "metabolite peak area": "2.81e+06 a.u. and 2.94e+06 a.u. and 4.5e+06 a.u. and 7.95e+06 a.u. and 2.2e+06 a.u. and 4.41e+06 a.u."}
{"test": "UPLC-MS/MS, item: thymine", "system": "C57BL/6 CES1-/- mice, EL4 tumour", "metabolite peak area": "1.02e+06 a.u. and 1.61e+06 a.u. and 1.34e+06 a.u. and 1.54e+06 a.u. and 2.31e+06 a.u. and 1.21e+06 a.u."}
{"test": "UPLC-MS/MS, item: 4-vinylphenol sulfate", "system": "C57BL/6 CES1-/- mice, EL4 tumour", "metabolite peak area": "50200 a.u. and 195000 a.u. and 182000 a.u. and 97100 a.u. and 60600 a.u. and 43600 a.u."}
{"test": "UPLC-MS/MS metabolomics, item: galactose 1-phosphate", "system": "EL4, C57BL/6 CES1-/- mice, EL4 tumour, tumour", "metabolite peak area": "6.22e+06 a.u. and 7.26e+06 a.u. and 1.01e+07 a.u. and 4.91e+06 a.u. and 6.75e+06 a.u. and 7.47e+06 a.u."}
{"test": "UPLC-MS/MS, item: xanthine", "system": "C57BL/6 CES1-/- mice, EL4 tumour", "metabolite peak area": "3.56e+07 a.u. and 4.12e+07 a.u. and 5.3e+07 a.u. and 4.58e+07 a.u. and 3.47e+07 a.u. and 3.5e+07 a.u."}
{"note": "A few entries again (series 1):"}
{"target": "CHEK1 (Homo sapiens, UniProt O14757)", "remaining activity": "110%"}
{"target": "MAP3K10 (Homo sapiens, UniProt Q02779)", "remaining activity": "90.4%"}
{"target": "IRAK4 (Homo sapiens, UniProt Q9NWZ3)", "remaining activity": "90.4%"}
{"target": "Cyclin-dependent kinase 9, with cyclin T1 (CDK9, Homo sapiens, UniProt P50750)", "remaining activity": "102%"}
{"target": "STK38 (Homo sapiens, UniProt Q15208)", "remaining activity": "96.4%"}
